Published values pooled from the literature.
Organism: Enterococcus faecium

With `CN[C@H](CC(C)C)C(=O)N[C@H]1C(=O)N[C@@H](CC(N)=O)C(=O)N[C@H]2C(=O)N[C@H]3C(=O)N[C@H](C(=O)N[C@H](C(=O)O)c4cc(O)cc(O)c4-c4cc3ccc4O)[C@H](O)c3ccc(c(Cl)c3)Oc3cc2cc(c3O[C@@H]2O[C@H](CO)[C@@H](O)[C@H](O)[C@H]2O[C@H]2C[C@](C)(NCc3ccc(OCc4cn(CC(=O)N[C@H](C(=O)N[C@@H](CCN)C(=O)N[C@H]5CCNC(=O)[C@H]([C@@H](C)O)NC(=O)[C@H](CCN)NC(=O)[C@H](CCN)NC(=O)[C@H](CC(C)C)NC(=O)[C@@H](CC(C)C)NC(=O)[C@H](CCN)NC5=O)[C@@H](C)O)nn4)c(OC)c3)[C@H](O)[C@H](C)O2)Oc2ccc(cc2Cl)[C@H]1O` the MIC was 2 µg/mL (broth microdilution; vancomycin-resistant vanB, tryptic soy broth; 20 to 24 h, 37 °C, 0.002% polysorbate 80).
`CC[C@H](C)[C@@H]1NC(=O)[C@@H]([C@@H](C)O)NC(=O)CNC(=O)[C@H](CC(=O)O)NC(=O)CNC(=O)[C@H](CC(=O)O)NC(=O)CNC(=O)[C@H]2CCCCN2C(=O)[C@@H](NC(=O)[C@H](CC(=O)O)NC(=O)/C=C/CCCCCCCCCC(C)C)CNC(=O)[C@@H]2CCCN2C1=O` has an MIC of 16 µg/mL (broth microdilution; daptomycin-resistant isolate, Mueller-Hinton broth, Mg2+ 10 mg/L; 16 h, with: Ca2+ 2.5 mM).
`CC[C@H](C)[C@H](NC(=O)[C@H](C)NC(=O)[C@@H](NC(=O)[C@H](CC(=O)O)NC(=O)[C@H](CCCCN)NC(=O)[C@H](CO)NC(=O)[C@@H](NC(=O)[C@H](CC(N)=O)NC(=O)[C@H](C)NC(=O)[C@@H](NC(=O)[C@H](CCC(=O)O)NC(=O)[C@H](CCCCN)NC(=O)[C@@H](NC(=O)[C@@H](NC(=O)[C@H](Cc1c[nH]cn1)NC(=O)[C@H](CCCCN)NC(=O)[C@@H](NC(=O)[C@H](CCCCN)NC(=O)[C@H](CCCCN)NC(=O)[C@@H](NC(=O)[C@H](CC(C)C)NC(=O)[C@H](CCCCN)NC(=O)[C@H](CC(N)=O)NC(=O)[C@H](Cc1ccccc1)NC(=O)[C@H](CCCNC(=N)N)NC(=O)[C@H](CCCCN)NC(=O)[C@H](CCCNC(=N)N)NC(=O)[C@H](Cc1ccccc1)NC(=O)CN)C(C)C)C(C)C)[C@@H](C)O)[C@@H](C)CC)[C@@H](C)O)C(C)C)C(C)C)C(=O)N[C@H](C(=O)N[C@@H](C)C(=O)NCC(=O)N[C@@H](CO)C(=O)NCC(=O)N[C@H](C(=O)N[C@@H](C)C(=O)N[C@H](C(=O)NCC(=O)N[C@@H](C)C(=O)N[C@@H](C)C(=O)N[C@@H](CCSC)C(N)=O)C(C)C)C(C)C)C(C)C` gave an MIC of greater than 1020 µg/mL (DSM 17050, CAMHB).
For `CN[C@H](CC(C)C)C(=O)N[C@H]1C(=O)N[C@@H](CC(N)=O)C(=O)N[C@H]2C(=O)N[C@H]3C(=O)N[C@H](C(=O)N[C@H](C(=O)NCC(N)=O)c4cc(O)cc(O)c4-c4cc3ccc4O)[C@H](O)c3ccc(c(Cl)c3)Oc3cc2cc(c3O[C@@H]2O[C@H](CO)[C@@H](O)[C@H](O)[C@H]2O[C@H]2C[C@](C)(NCc3ccc(OCc4cn(CC(=O)N[C@H](C(=O)N[C@@H](CCN)C(=O)N[C@H]5CCNC(=O)[C@H]([C@@H](C)O)NC(=O)[C@H](CCN)NC(=O)[C@H](CCN)NC(=O)[C@H](CC(C)C)NC(=O)[C@@H](CC(C)C)NC(=O)[C@H](CCN)NC5=O)[C@@H](C)O)nn4)c(OC)c3)[C@H](O)[C@H](C)O2)Oc2ccc(cc2Cl)[C@H]1O`, the MIC was 0.5 µg/mL (broth microdilution; vancomycin-resistant vanB, tryptic soy broth; 20 to 24 h, 37 °C, 0.002% polysorbate 80).
With `CC(C)C[C@@H](NC(=O)[C@@H](CCCNC(=N)N)NC(=O)[C@H](N)CCCNC(=N)N)C(=O)N[C@H](CC(C)C)C(=O)N[C@H](CCCNC(=N)N)C(=O)N[C@H](CCCCN)C(=O)N[C@H](CC(C)C)C(=O)N[C@H](CCCCN)C(=O)NCC(=O)N[C@H](CCCCN)C(=O)N[C@H](CCCCN)C(=O)N[C@H](CC(C)C)C(=O)N[C@H](Cc1ccc(O)cc1)C(=O)N[C@H](CC(C)C)C(=O)N[C@H](Cc1ccc(O)cc1)C(=O)N[C@H](Cc1ccccc1)C(=O)N[C@H](CCCCN)C(=O)N[C@H](CC(C)C)C(=O)N[C@H](CCC(N)=O)C(=O)N[C@H](CC(C)C)C(=O)N[C@H](CC(C)C)C(=O)N[C@H](CCCCN)C(=O)N[C@H](CCCCN)C(N)=O` the MIC was 2 µM (ATCC 51559, vancomycin-resistant, Mueller-Hinton broth; 24 h).
With `CC[C@H](C)[C@H](NC(=O)[C@H](Cc1c[nH]c2ccccc12)NC(=O)[C@H](Cc1ccc(O)cc1)NC(=O)[C@H](CCCCN)NC(=O)[C@H](CC(C)C)NC(=O)[C@@H](N)CO)C(=O)N[C@@H](CCCNC(=N)N)C(=O)N[C@@H](Cc1ccc(O)cc1)C(=O)N[C@@H](CCCCN)C(=O)N[C@@H](CCCNC(=N)N)C(=O)N[C@@H](CCC(N)=O)C(=O)NCC(=O)N[C@@H](C)C(=O)N[C@@H](C)C(=O)N[C@@H](CCCNC(=N)N)C(=O)N[C@@H](Cc1ccccc1)C(N)=O` the MIC was 25 µM (broth dilution; KCTC 13225).
For `C#CCOc1ccc(CN[C@@]2(C)C[C@H](O[C@H]3[C@H](Oc4c5cc6cc4Oc4ccc(cc4Cl)[C@@H](O)[C@@H](NC(=O)[C@@H](CC(C)C)NC)C(=O)N[C@@H](CC(N)=O)C(=O)N[C@H]6C(=O)N[C@H]4C(=O)N[C@H](C(=O)N[C@H](C(=O)O)c6cc(O)cc(O)c6-c6cc4ccc6O)[C@H](O)c4ccc(c(Cl)c4)O5)O[C@H](CO)[C@@H](O)[C@@H]3O)O[C@@H](C)[C@H]2O)cc1OC`, the MIC was 39 µM (VRE vanB).
`CC[C@H](C)[C@H](N)C(=O)N[C@@H](C)C(=O)N[C@@H](CC(C)C)C(=O)N[C@H](CCC(=O)O)C(=O)N[C@H](C(=O)N[C@H]1CCCCNC(=O)[C@H](CC(N)=O)NC(=O)[C@@H](CC(=O)O)NC(=O)[C@H](Cc2c[nH]cn2)NC(=O)[C@@H](Cc2ccccc2)NC(=O)[C@H]([C@@H](C)CC)NC(=O)[C@@H](CCCN)NC1=O)[C@@H](C)CC` gave an MIC of greater than 64 µg/mL (VanB vancomycin-resistant; 18 h, 37 °C, 0.3 mM ZnSO4 LB).
For `CCCCCCCCCCCC(=O)C(C)C(=O)N1CCC[C@H]1C(=O)NC(C)(C)C(=O)NC(C)(C)C(=O)NC(C)(C)C(=O)N[C@](C)(CC)C(=O)NCCC(=O)N[C@@H](C)C(=O)N[C@](C)(CC)C(=O)N[C@@H](C)C(=O)N[C@@H](CC(C)C)C(=O)N[C@](C)(CC)C(=O)NCCC(=O)N[C@@H](C)C(=O)N[C@](C)(CC)C(=O)NCCC(=O)N[C@@H](C)C(=O)NC(C)(C)C(=O)NC(C)(C)C(=O)NC(C)(C)C(=O)N[C@@H](C)C(=O)N[C@@H](CC(=O)O)C(=O)O` (stereo partly shown), the MIC was greater than 128 µg/mL (ATCC 19434).
The MIC of `C#CCOc1ccc(CN[C@@]2(C)C[C@H](O[C@H]3[C@H](Oc4c5cc6cc4Oc4ccc(cc4Cl)[C@@H](O)[C@@H](NC(=O)[C@@H](CC(C)C)NC)C(=O)N[C@@H](CC(N)=O)C(=O)N[C@H]6C(=O)N[C@H]4C(=O)N[C@H](C(=O)N[C@H](C(=O)N[C@@H](CCCNC(=N)N)C(N)=O)c6cc(O)cc(O)c6-c6cc4ccc6O)[C@H](O)c4ccc(c(Cl)c4)O5)O[C@H](CO)[C@@H](O)[C@@H]3O)O[C@@H](C)[C@H]2O)cc1OC` is reported as 4 µg/mL (broth microdilution; vancomycin-resistant vanB, tryptic soy broth; 20 to 24 h, 37 °C, 0.002% polysorbate 80).
With `CC(C)C[C@H](NC(=O)[C@@H](NC(=O)[C@H](CCCNC(=N)N)NC(=O)[C@H](CCC(N)=O)NC(=O)[C@H](Cc1ccccc1)NC(=O)[C@H](Cc1ccc(O)cc1)NC(=O)[C@H](CC(N)=O)NC(=O)[C@H](Cc1c[nH]c2ccccc12)NC(=O)[C@@H](NC(=O)[C@H](CCCNC(=N)N)NC(=O)[C@H](CCCCN)NC(=O)[C@@H](N)Cc1ccccc1)C(C)C)C(C)C)C(=O)N[C@H](C(=O)N[C@@H](CCCCN)C(=O)N[C@@H](CCCCN)C(=O)N[C@@H](Cc1ccc(O)cc1)C(N)=O)C(C)C` the MIC was 25 µM (broth dilution; KCTC 13225).
For `CC(C)CCCCCCCCC/C=C/C(=O)N[C@@H](CC(N)=O)C(=O)N[C@H]1CNC(=O)[C@@H]2CCCN2C(=O)[C@H](C(C)C)NC(=O)[C@@H](CN)NC(=O)CNC(=O)[C@H](CC(=O)O)NC(=O)CNC(=O)[C@H](CC(=O)O)NC(=O)[C@H](CC(=O)O)NC(=O)[C@H]2CCCCN2C1=O`, the MIC was 2 µg/mL (broth microdilution; daptomycin-resistant isolate, Mueller-Hinton broth, Mg2+ 10 mg/L; 16 h, with: Ca2+ 2.5 mM).
With `CN[C@H](CC(C)C)C(=O)N[C@H]1C(=O)N[C@@H](CC(N)=O)C(=O)N[C@H]2C(=O)N[C@H]3C(=O)N[C@H](C(=O)N[C@H](C(=O)NCc4cn(CCCCC(=O)N[C@H](C(=O)N[C@@H](CCN)C(=O)N[C@H]5CCNC(=O)[C@H]([C@@H](C)O)NC(=O)[C@H](CCN)NC(=O)[C@H](CCN)NC(=O)[C@H](CC(C)C)NC(=O)[C@@H](CC(C)C)NC(=O)[C@H](CCN)NC5=O)[C@@H](C)O)nn4)c4cc(O)cc(O)c4-c4cc3ccc4O)[C@H](O)c3ccc(c(Cl)c3)Oc3cc2cc(c3O[C@@H]2O[C@H](CO)[C@@H](O)[C@H](O)[C@H]2O[C@H]2C[C@](C)(N)[C@H](O)[C@H](C)O2)Oc2ccc(cc2Cl)[C@H]1O` the MIC was 8 µg/mL (broth microdilution; vancomycin-resistant vanB, tryptic soy broth; 20 to 24 h, 37 °C, 0.002% polysorbate 80).
`C=C1NC(=O)C2CSCC3NC(=O)C(CSC(C)C(NC(=S)C(Cc4cnc[nH]4)NC(=O)c4csc(C(C)NC(C)=O)n4)C(=O)N[C@H](CC(C)C(=O)NC(=O)CC(C(=O)O)NC(=O)C(C)NC3=O)C(=O)N2)NC(=O)[C@@H]2CCCN2C(=O)[C@@H](CC(C)C)NC1=O` (stereo partly shown) gave an MIC of greater than 32 µg/mL (BM4147-1).
With `CC(C)CCCCCCCCC/C=C/C(=O)N[C@@H](CC(=O)O)C(=O)N[C@H]1CNC(=O)[C@@H]2CCCN2C(=O)[C@H](C(C)C)NC(=O)[C@@H](CN)NC(=O)CNC(=O)[C@H](CC(=O)O)NC(=O)CNC(=O)[C@H](CC(=O)O)NC(=O)[C@H](CC(=O)O)NC(=O)[C@H]2CCCCN2C1=O` the MIC was 8 µg/mL (broth microdilution; daptomycin-resistant isolate, Mueller-Hinton broth, Mg2+ 10 mg/L; 16 h, with: Ca2+ 1.0 mM).
The MIC of `Oc1c(Br)cc(Br)c2nc3cc(C(F)(F)F)ccc3nc12` is reported as 0.15 µM (broth microdilution; vancomycin-resistant 700221, brain-heart infusion broth).
`CN[C@H](CC(C)C)C(=O)N[C@H]1C(=O)N[C@@H](CC(N)=O)C(=O)N[C@H]2C(=O)N[C@H]3C(=O)N[C@H](C(=O)N[C@H](C(=O)O)c4cc(O)cc(O)c4-c4cc3ccc4O)[C@H](O)c3ccc(c(Cl)c3)Oc3cc2cc(c3O[C@@H]2O[C@H](CO)[C@@H](O)[C@H](O)[C@H]2O[C@H]2C[C@](C)(NCc3ccc(OCc4cn(CCCCC(=O)N[C@H](C(=O)N[C@@H](CCN)C(=O)N[C@H]5CCNC(=O)[C@H]([C@@H](C)O)NC(=O)[C@H](CCN)NC(=O)[C@H](CCN)NC(=O)[C@H](CC(C)C)NC(=O)[C@@H](CC(C)C)NC(=O)[C@H](CCN)NC5=O)[C@@H](C)O)nn4)c(OC)c3)[C@H](O)[C@H](C)O2)Oc2ccc(cc2Cl)[C@H]1O` gave an MIC of 8 µg/mL (broth microdilution; vancomycin-resistant vanB, tryptic soy broth; 20 to 24 h, 37 °C, 0.002% polysorbate 80).
`CC[C@H](C)[C@H](N)C(=O)N[C@@H](CCCNC(=N)N)C(=O)N[C@H](C(=O)N[C@@H](Cc1c[nH]c2ccccc12)C(=O)N[C@@H](CCCCN)C(=O)N[C@@H](CCCCN)C(=O)N[C@H](C(=O)N[C@H](C(=O)N[C@@H](CCCNC(=N)N)C(=O)N[C@@H](CCCCN)C(=O)N[C@@H](CCSC)C(=O)N[C@@H](CCCCN)C(=O)N[C@@H](C)C(=O)N[C@H](C(=O)N[C@@H](Cc1ccc(O)cc1)C(=O)N[C@@H](Cc1c[nH]cn1)C(N)=O)[C@@H](C)CC)C(C)C)[C@@H](C)CC)C(C)C` has an MIC of greater than 100 µM (broth dilution; KCTC 13225).
`Cc1ccc2[nH]c3c(c2c1)CCCC3NCCc1ccc(O)cc1` (stereo not shown) has an MIC of 16 µg/mL (broth microdilution; BM4147 vancomycin-resistant).
